Experimental data gathered from unrelated publications.
Every numbered part comes from another study and shows a few of its results, in no order. “And” joins repeats or separate records; there may be more than shown.
Chain of UniProt Q02763 (whole entry, looked up): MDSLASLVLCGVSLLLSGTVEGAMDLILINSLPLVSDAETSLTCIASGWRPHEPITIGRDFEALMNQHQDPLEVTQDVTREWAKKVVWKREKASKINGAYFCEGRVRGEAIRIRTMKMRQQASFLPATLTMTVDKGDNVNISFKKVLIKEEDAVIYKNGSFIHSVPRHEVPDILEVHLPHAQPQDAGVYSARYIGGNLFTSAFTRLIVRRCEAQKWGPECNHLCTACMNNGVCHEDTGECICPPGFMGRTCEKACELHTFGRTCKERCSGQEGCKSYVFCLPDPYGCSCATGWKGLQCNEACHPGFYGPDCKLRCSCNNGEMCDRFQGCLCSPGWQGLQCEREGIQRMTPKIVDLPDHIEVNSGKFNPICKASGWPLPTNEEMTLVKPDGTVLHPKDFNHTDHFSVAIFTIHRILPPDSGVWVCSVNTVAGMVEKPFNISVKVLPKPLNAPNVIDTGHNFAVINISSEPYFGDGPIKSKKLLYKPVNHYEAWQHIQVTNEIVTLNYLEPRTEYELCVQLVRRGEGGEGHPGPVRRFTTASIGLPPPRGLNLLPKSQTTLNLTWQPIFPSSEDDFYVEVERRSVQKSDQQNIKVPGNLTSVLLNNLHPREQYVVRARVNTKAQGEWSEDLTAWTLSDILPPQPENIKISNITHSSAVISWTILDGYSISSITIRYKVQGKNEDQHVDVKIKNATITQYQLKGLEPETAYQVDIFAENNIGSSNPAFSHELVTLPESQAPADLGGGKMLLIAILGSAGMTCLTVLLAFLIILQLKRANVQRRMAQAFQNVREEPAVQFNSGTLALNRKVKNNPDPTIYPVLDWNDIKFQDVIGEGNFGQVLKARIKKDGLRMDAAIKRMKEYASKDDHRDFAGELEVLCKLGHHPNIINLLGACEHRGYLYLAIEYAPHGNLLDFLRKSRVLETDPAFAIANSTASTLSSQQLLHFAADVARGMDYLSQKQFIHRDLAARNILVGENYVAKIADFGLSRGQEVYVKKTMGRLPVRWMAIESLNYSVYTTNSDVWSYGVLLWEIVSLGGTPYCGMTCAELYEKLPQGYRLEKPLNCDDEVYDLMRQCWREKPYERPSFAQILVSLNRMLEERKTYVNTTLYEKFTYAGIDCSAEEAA
Chain of UniProt Q08345 (whole entry, looked up): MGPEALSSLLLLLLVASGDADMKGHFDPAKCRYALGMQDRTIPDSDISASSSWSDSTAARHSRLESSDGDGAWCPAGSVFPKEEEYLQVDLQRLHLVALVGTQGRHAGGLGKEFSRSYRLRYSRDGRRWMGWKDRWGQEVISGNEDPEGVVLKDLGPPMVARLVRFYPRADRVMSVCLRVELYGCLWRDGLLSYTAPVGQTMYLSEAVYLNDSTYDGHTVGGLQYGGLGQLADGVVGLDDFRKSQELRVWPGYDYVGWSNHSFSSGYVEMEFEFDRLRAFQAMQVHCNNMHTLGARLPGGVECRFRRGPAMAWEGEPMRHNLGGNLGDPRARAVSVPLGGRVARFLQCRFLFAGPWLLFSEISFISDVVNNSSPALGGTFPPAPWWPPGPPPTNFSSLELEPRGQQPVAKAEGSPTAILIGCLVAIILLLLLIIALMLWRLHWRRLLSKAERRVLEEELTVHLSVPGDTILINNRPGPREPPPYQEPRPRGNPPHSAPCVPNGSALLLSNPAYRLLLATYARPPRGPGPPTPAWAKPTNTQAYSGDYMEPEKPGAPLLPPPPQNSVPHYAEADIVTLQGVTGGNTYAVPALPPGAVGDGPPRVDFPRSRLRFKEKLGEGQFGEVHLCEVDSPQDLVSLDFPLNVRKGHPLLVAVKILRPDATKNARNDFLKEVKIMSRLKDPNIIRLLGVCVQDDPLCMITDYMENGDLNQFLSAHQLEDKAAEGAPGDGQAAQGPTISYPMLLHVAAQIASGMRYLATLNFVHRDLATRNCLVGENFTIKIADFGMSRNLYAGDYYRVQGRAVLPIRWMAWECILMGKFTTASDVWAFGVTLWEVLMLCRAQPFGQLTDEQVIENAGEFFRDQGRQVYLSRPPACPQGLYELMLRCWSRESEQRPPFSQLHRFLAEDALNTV
Chain of UniProt O94804 (whole entry, looked up): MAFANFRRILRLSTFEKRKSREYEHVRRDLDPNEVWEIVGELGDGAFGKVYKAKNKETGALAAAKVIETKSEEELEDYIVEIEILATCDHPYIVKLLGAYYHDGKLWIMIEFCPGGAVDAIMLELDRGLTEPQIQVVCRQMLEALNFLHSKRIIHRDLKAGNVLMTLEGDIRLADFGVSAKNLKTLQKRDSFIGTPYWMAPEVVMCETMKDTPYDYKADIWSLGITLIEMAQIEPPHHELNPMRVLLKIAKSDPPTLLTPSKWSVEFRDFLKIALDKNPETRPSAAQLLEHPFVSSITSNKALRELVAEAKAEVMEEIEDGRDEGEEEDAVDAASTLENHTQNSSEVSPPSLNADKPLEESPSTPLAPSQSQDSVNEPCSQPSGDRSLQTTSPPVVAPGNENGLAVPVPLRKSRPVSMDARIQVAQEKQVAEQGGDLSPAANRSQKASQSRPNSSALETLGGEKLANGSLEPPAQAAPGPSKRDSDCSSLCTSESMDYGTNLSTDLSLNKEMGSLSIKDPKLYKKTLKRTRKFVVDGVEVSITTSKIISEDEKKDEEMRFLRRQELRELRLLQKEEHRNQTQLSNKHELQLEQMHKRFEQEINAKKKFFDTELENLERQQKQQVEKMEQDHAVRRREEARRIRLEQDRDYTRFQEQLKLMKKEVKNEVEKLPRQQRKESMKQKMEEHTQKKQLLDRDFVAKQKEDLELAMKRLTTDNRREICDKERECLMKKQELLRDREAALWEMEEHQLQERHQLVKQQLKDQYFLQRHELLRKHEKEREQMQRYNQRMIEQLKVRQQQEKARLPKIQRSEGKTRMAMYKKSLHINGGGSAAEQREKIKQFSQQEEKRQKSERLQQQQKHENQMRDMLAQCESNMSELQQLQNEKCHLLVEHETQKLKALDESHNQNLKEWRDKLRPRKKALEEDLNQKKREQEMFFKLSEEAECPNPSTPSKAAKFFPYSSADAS
Chain of UniProt O15197 (whole entry, looked up): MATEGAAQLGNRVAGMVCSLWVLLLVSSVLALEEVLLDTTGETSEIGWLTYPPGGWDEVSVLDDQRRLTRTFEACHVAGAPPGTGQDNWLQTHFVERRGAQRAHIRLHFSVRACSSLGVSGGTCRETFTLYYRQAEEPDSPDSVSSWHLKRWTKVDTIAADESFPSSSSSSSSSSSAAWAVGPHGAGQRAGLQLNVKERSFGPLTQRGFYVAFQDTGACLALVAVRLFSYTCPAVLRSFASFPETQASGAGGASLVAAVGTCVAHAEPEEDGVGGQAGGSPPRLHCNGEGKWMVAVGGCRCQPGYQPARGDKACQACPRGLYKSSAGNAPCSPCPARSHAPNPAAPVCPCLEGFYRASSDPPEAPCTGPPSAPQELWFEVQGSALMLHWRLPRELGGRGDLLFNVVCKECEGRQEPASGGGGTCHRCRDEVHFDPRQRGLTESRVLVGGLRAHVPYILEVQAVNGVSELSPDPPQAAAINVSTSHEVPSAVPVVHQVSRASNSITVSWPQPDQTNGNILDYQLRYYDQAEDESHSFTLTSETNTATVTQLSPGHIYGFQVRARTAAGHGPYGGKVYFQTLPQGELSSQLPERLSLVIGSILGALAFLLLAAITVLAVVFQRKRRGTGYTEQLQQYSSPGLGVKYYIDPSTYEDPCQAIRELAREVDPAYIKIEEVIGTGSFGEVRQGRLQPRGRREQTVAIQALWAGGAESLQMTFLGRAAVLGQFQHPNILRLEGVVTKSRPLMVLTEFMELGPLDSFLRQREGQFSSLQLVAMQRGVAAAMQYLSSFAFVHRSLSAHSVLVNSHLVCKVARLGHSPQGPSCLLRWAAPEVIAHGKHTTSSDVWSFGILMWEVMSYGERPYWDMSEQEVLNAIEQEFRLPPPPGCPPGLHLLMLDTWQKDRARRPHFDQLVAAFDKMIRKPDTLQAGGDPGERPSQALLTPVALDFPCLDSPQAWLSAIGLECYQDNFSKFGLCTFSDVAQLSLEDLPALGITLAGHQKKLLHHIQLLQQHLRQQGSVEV

Series 1 — species: patients, advanced malignancies; route: oral; dose: dose not given
SMILES: COc1ccc(-c2c(Nc3ccccn3)[nH]c3c(C4=CCCCC4)c(-c4ccccc4)nn3c2=O)cc1
setting	patients with adverse event
treatment-emergent Chills	10%
treatment-emergent Diarrhoea	20%
treatment-emergent Dehydration	12.5%
treatment-emergent Hyperbilirubinaemia	12.5%
treatment-emergent Pneumonia	10%
treatment-emergent Nausea	32.5%
grade 3 or higher Dyspnoea	7.5%
grade 3 or higher Pneumonia	7.5%
grade 3 or higher Thrombocytopenia	5%
treatment-emergent Fatigue	42.5%
treatment-emergent Dyspnoea	20%

Series 2 — mode: antagonist
Target: Beta-1 adrenergic receptor (ADRB1, Homo sapiens, UniProt P08588)
Chain of UniProt P08588 (whole entry, looked up): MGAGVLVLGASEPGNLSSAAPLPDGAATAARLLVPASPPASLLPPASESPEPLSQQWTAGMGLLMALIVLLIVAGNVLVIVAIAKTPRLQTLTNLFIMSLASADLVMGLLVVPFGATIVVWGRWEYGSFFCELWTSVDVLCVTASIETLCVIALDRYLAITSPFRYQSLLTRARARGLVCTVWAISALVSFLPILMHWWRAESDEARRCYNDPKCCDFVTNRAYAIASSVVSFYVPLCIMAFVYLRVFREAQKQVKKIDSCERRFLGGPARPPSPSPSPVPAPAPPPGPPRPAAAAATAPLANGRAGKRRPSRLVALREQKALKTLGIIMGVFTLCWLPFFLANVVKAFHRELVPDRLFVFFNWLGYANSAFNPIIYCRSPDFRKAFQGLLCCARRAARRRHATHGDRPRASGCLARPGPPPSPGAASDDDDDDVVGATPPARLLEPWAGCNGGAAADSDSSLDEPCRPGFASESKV
SMILES	IC50 [µM]
CN1CCN(c2ccc3ccccc3n2)CC1	≥ 100
FC(F)(F)c1cccc(C2=CCN(CCc3ccc4ccccc4c3)CC2)c1	≥ 100
COc1ccc2[nH]cc(C3=CCN(CC(=O)N(C)Cc4ccccc4)CC3)c2c1	≥ 100
CN(C)CCc1ccc(O)cc1	≥ 100
CCCNC(C)Cc1ccc2c(c1)OCO2 (centres unmarked)	≥ 100
C[C@@H]([C@H](O)c1ccccc1)N(C)C	≥ 100
C[C@H](Cc1ccc(OCC(=O)O)cc1)NC[C@H](O)c1cccc(Cl)c1	≥ 100

Series 3
SMILES: Cc1cc(NC(=O)c2cccc(S(F)(F)(F)(F)F)c2)cc(-n2ccn3nc(-c4cccnc4)cc23)c1
LYN: Tyrosine-protein kinase Lyn (LYN, Homo sapiens, UniProt P07948)
Chain of UniProt P07948 (whole entry, looked up): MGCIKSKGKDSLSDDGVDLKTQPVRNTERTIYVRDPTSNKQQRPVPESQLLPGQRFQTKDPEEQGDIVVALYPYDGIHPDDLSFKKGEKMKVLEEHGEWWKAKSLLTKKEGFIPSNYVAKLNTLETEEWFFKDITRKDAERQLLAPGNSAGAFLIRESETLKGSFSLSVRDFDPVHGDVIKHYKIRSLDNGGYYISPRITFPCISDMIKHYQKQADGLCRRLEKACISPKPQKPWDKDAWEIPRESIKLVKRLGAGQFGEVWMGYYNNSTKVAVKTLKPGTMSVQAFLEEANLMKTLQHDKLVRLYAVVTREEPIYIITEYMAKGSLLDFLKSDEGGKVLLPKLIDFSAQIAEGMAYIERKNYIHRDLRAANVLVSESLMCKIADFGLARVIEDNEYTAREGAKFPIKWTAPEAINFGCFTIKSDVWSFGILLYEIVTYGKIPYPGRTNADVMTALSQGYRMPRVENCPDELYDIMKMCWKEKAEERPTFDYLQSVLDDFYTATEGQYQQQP
target	assay	system	EC50
Epithelial discoidin domain-containing receptor 1 (DDR1, Homo sapiens, UniProt Q08345)	target engagement, NanoBRET	live cells	0.129 µM and 0.264 µM and 0.216 µM
Angiopoietin-1 receptor (TEK, Homo sapiens, UniProt Q02763)	target engagement, NanoBRET	live cells	4 µM and 3.36 µM and 2.56 µM
Ephrin type-B receptor 6 (EPHB6, Homo sapiens, UniProt O15197)	target engagement, NanoBRET	live cells	28.8 µM and 38.6 µM and 14.2 µM
LYN	target engagement, NanoBRET	live cells	> 50 µM
Serine/threonine-protein kinase 10 (STK10, Homo sapiens, UniProt O94804)	target engagement, NanoBRET	live cells	2.16 µM and 3.98 µM and 3.41 µM
LYN	target engagement in cells, BRET	–	> 50 µM
Tyrosine-protein kinase receptor Tie-1 (TIE1, Homo sapiens, UniProt P35590)	target engagement, NanoBRET	live cells	2.98 µM and 3.45 µM and 1.26 µM

Other studies, line by line
SMILES	target	assay	system	quantity	result
CC(C)(C)c1nc(-c2cccc(NS(=O)(=O)c3c(F)cccc3F)c2F)c(-c2ccnc(N)n2)s1	Serine/threonine-protein kinase A-Raf (ARAF, Homo sapiens, UniProt P10398)	HSP90 interaction, LUMIER	human cells	EC50	0.12 µM

For quick reference, copied from above (series 1):
setting	patients with adverse event
treatment-emergent Fatigue	42.5%
grade 3 or higher Thrombocytopenia	5%
treatment-emergent Diarrhoea	20%
